Published values of several laboratories.
Every numbered part comes from another study and shows a few of its results, in no order.

Series 1
Target: Interferon regulatory factor 5, full length, phosphomimetic (IRF5, Homo sapiens, UniProt Q13568-2, residues 1-514, K96S/S451D/S453D/S456D/S462D)
Technique: protein-binding microarray
Form: double-stranded DNA, one strand shown
Sample: in vitro
Tested at: 250 nM
Notes: 60-bp whole probe
Added: salmon DNA 0.4 mg/ml
Baseline: random background probes
Direction: higher = stronger binding
All sequences stand within: GCCTAGCAC … GTCTTGATTCGCTTGACGCTGCTG
Oligonucleotide | log fluorescence [z-score]
GTAGGACTGGGACTGGGTTAGTGCTAG | -0.743
TTACATATCGGGTATCGATTAGTGCTA | 6.18
TTCGATCTCAGTCTCGATTAGTGCTAG | 1.5
TTAGGTATCGACTATCTGTTAGTGCTA | 4.36
TTAGGTCTCCTTCTCCATTAGTGCTAG | 0.0944

Series 2
Target: RNA binding protein fox-1 homolog 2, RRM domain, GST-SBP tag (RBFOX2, Homo sapiens, UniProt O43251-10, residues 100-194)
Technique: RNA Bind-n-Seq
Form: RNA
Sample: in vitro
Tested at: 365 nM
Notes: natural RNA segment, single round, ends assumed
Baseline: no-protein control
Direction: higher = stronger binding
All sequences stand within: GGGAGUUCUACAGUCCGACGAUC … UGGAAUUCUCGGGUGCCAA
Target sequence (chain): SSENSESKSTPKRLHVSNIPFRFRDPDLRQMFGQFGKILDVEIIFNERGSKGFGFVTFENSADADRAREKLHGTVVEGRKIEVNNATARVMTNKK
Oligonucleotide | RBNS enrichment (R)
UGAGUCUAGUUUUCUCUCAAAAUGAGAACAUUAGGCUAAAUGAUUUCCGAGUUUCCAGCUAGUCCUAGAGUUCUAUAUUUCUACAUAGUUGAAUUAUUUUAUCAUGCUGU | 0.316
UGCCACAUUCAGCCCUGCCCAGGAAGGAACACAUGACCCUUCUGUCUGUGACUGUUGCUGAGUCUCUGUCUCAUGUCGUAGAAUUGUGGAUAAUUGUCUAGUGACCCUCU | 0.251
UUUUUGUAGUUUUGGUAUUUAAAGCAAAAAAACGAAAAACAAAAAACAAAAACAAACCUUUUGGUAACUGUGCACUGUGUCCUUUAGCCAGGGCCGUGCCAACUUAUGAA | 0.441
CGCCUCUUUUAUUAUUUUGACUGAAUGUUUUAUGGAAUUGAAAGAAACAUACGUUCUUUUCAAGACUUCCUCAUGAAUCUCUCAAUUAUAGGAAAAGUUAUUGUGAUAAA | 0.422
GGCCAGUUGGCCUUCUCACUUUGAUAGUUUAACUCAGGUACCCAGUCUUCACUCCAUCCCCAGGUGCUUGUUCACCUCAUUAAUGAGCACCUAGAGCAAGGACCAAAAGA | 0.22

Series 3
Target: Sal-like protein 4, full length isoform B (SALL4, Homo sapiens, UniProt Q9UJQ4-2, residues 1-616)
Technique: universal PBM
Form: double-stranded DNA, one strand shown
Sample: in vitro
Tested at: not given
Notes: 8-mer, flanks averaged, mean of replicates
Direction: higher = stronger binding
Residues (chain): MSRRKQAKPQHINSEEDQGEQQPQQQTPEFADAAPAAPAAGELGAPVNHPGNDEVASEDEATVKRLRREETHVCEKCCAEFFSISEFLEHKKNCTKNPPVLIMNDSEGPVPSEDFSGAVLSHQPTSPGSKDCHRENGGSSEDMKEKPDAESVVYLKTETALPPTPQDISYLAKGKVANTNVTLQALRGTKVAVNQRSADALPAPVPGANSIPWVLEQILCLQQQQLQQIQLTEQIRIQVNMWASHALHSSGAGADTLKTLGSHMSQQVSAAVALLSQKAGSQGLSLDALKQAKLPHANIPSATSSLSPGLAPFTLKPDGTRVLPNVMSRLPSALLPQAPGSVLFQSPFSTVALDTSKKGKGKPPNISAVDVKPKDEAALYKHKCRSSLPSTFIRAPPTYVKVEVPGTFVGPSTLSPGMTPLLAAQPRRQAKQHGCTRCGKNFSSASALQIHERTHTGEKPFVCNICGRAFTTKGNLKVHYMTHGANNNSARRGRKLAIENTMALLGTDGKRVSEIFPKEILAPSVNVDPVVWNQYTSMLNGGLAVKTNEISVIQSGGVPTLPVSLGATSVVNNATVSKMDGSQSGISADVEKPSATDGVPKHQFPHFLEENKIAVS
Oligonucleotide | E-score
GGCTCCAC | -0.316
CACGGGCG | -0.335
CTAACGGC | -0.0514
CGAGTCTC | -0.283

Single results of other studies
Substance | target | test | test system | setting | how to read | measurement | value
PhoQ, residues 284 288 289 292 302 303 AGCYAI | PhoP, residues 12 14 15 18 19 NIMAP (Escherichia coli, UniProt P23836) | Sort-seq, refers to: YFP reporter | E. coli | PhoQ-PhoP variant library, added: 10 µM Mg2+ | baseline: high Mg2+ state, higher = stronger signaling | fold induction | 0.669

For quick reference, copied from above (series 3):
Oligonucleotide | E-score
CGAGTCTC | -0.283
CTAACGGC | -0.0514
